Experimental data collected from several papers.
Each numbered part is a random draw from the data of one study; scales do not carry over between parts.

Set 1
Target: Histone acetyltransferase KAT6A, winged helix 1, GST fusion (KAT6A, Homo sapiens, UniProt Q92794, residues 1-85)
Technique: protein binding microarray
Form: double-stranded DNA, one strand shown
Medium: in vitro
Concentration: not given
Setting: 8-mer, flanks averaged, mean of 2 arrays, mostly near background
Baseline: not given
Direction: higher = stronger binding
Residues (chain): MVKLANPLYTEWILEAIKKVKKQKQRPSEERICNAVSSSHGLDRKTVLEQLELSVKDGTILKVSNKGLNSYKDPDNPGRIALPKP
Oligonucleotide	E-score
CTACCGAC	0.129
AACGTTCG	-0.0109
AGGATGCC	-0.0386
TGGCCTAA	-0.196
CACCCACG	0.111
CCGGCAAC	0.285
CGATAGCG	0.302
TTCACAAA	-0.171
GTAGCCGA	0.104
AAAATAAT	-0.125
CTGCCAAC	-0.206
AGCTTCTG	-0.139
CTGGTGGA	-0.146
CAACTGGA	-0.24
CGCAGGGC	0.189
CCACATCC	-0.19
ACCCTTCA	-0.156
ACATTAAA	-0.0908
AAAGATGG	-0.027
CATCAAAG	-0.076
CGTTGCAC	-0.0226

Set 2
Target: Sal-like protein 4, full length isoform B (SALL4, Homo sapiens, UniProt Q9UJQ4-2, residues 1-616)
Technique: universal PBM
Form: double-stranded DNA, one strand shown
Medium: in vitro
Concentration: not given
Setting: 8-mer, flanks averaged, mean of replicates
Direction: higher = stronger binding
Oligonucleotide	E-score
GCATCCAA	-0.105
AAACTAAG	0.198
GATGCATC	0.0524
GTCCGAGA	-0.173
GTATTCAC	0.183
ATCCCTCA	-0.0204
ACGTGGCG	-0.166
CAAGATTA	0.117
GCAAGCAC	-0.0797
CGCTGGAG	-0.252
CCTAACGA	0.0496
ATCCACAT	0.202
GCCCAACC	0.0254
TGTCTAAA	0.214
GATCACAC	-0.12
GAATAGTA	0.279
CAGCAACG	0.026
ACGGTCGC	-0.315
ATCGGGTC	-0.158
AAGCACAG	-0.0063

Set 3
Target: RING finger protein unkempt homolog, zinc fingers 1-6, SBP tag (UNK, Homo sapiens, UniProt Q9C0B0, residues 30-357)
Sequence of UniProt Q9C0B0 (30-357, looked up): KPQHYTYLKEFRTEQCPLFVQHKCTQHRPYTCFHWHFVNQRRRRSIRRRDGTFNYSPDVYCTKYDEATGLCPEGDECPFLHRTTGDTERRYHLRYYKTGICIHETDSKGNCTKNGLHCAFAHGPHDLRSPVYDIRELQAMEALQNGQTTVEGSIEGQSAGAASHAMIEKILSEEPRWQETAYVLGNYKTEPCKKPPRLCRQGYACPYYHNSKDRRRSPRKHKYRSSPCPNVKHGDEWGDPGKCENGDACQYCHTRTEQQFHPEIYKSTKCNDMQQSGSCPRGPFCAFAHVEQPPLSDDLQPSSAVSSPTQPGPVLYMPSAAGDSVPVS
Technique: RNA Bind-n-Seq
Form: RNA
Medium: in vitro
Concentration: 100 nM
Setting: RNA with constant flanks, ends assumed
Baseline: input RNA pool
Direction: higher = stronger binding
Oligonucleotide	bound/input enrichment [ratio]
GGGAGUUCUACAGUCCGACGAUCCAUGAUCUUGUUACUGUGAUAUUUUAAAUAUCCACAGUACUCACUUUUUCCAAAUGAUCCCCGUAAUUGCCCCGAAAUAUCUUUCUCUUACCUGUUAUUUAUCAAUUUUUCCCAGUAUUUCAACAGAGGAUUGAGCAUCA	0.657
GGGAGUUCUACAGUCCGACGAUCUGGGCAUCCUCUCUGGGGAGCUGCUGGCCGCUCCGCGUUGUUUGAUUUUUGACCUUGACACCGCCGACCGGCUUGUGGUUUUUUUAAUUUAAAGAUAUUAAGACUUAAUUCACUAAAAUUCAACAGAGGAUUGAGCAUCA	0.26
GGGAGUUCUACAGUCCGACGAUCUAUCCGUGUUGUACCAGCCUAUUAACCUCUUGUCUGUGCACAGCUUCAAAUGUUACCGUCCCGUCCGAUUUUUAUUUAAAAUAUGAAAAACUGCUUUUCCCAAGAUGUUUUUUAAAAACACAACAGAGGAUUGAGCAUCA	0.742

Set 4
Target: Interferon regulatory factor 3, full length, phosphomimetic (IRF3, Homo sapiens, UniProt Q14653, residues 1-427, S386D/S396D/S398D/S402D/T404D/S405D)
Technique: protein-binding microarray
Form: double-stranded DNA, one strand shown
Medium: in vitro
Concentration: 2540 nM top
Setting: 60-bp whole probe
With: salmon DNA 0.4 mg/ml
Baseline: random background probes
Direction: higher = stronger binding
Constant ends, left off below: GCCTAGCAC … GTCTTGATTCGCTTGACGCTGCTG
Construct (chain): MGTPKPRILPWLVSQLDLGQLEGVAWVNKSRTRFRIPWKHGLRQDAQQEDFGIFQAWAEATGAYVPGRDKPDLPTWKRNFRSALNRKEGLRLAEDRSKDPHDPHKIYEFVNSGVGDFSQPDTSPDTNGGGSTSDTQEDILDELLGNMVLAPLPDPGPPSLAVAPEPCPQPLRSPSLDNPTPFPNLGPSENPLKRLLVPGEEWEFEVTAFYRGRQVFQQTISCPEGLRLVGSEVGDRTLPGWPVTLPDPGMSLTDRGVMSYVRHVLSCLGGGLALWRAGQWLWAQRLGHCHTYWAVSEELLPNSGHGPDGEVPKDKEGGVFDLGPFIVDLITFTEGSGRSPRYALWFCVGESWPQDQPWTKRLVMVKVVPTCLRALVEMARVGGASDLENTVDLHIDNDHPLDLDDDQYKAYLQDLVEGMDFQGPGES
Oligonucleotide	fitted relative affinity
TCAGAACTGGGGTATCGATTAGTGCTA	0.00936 z-score
CTAGGTCTCGGTATCGGTTAGTGCTAG	2.51 z-score
GACGATATCACTATCGAGACGTGCTAG	1.25 z-score
TTAGGTTTCCTTTTCCTCTAGTGCTAG	11.3 z-score
GACAGTTTCGACTTTCGGGACGTGCTA	4 z-score
TTAGGACTAGGTCTCGGTTAGTGCTAG	-0.414 z-score
TTAGGACTGCTTCTCCTCTAGTGCTAG	-0.161 z-score
TGAGGACTGGACTATCGGTTAGTGCTA	-0.727 z-score
TTAGGTCTCCTTATGCTTTAGTGCTAG	1.7 z-score
GACGTACTGGGGTATCGAGACGTGCTA	-0.513 z-score
TCAGCTTTCCTGATGACACTGTGCTAG	1.45 z-score
TCACCTCTTTCTTTGCTACTGTGCTAG	1.43 z-score
TACGGACTGGGTCTCGGGACGTGCTAG	-0.764 z-score
GACGAACTGATTCTCGAGACGTGCTAG	0.253 z-score
TCATTTCTCCTATTTAAACTGTGCTAG	3.48 z-score
TTAGGTTTCCTACTGCATTAGTGCTAG	5.18 z-score
GACGATATCAGATTCGAGACGTGCTAG	1.71 z-score
TTAGGACTGCTTCTCCTTAAGTGCTAG	0.116 z-score
GACGAGCTGAGACTGGAGACGTGCTAG	-0.845 z-score
GACGATTTCAGTGTCGAGACGTGCTAG	1.47 z-score
CCACTCTTCCTTTACTTTCTGTGCTAG	2.28 z-score
TTAGGCTTCGGTTTCGGTTAGTGCTAG	4.9 z-score
TCACTTTACACACATCATACTGTGCTA	1.34 z-score

Set 5
Target: Fragile X messenger ribonucleoprotein 1, C-terminal low-complexity region (Fmr1, Mus musculus, UniProt P35922)
Technique: RNA Bind-n-Seq
Form: RNA
Medium: in vitro
Concentration: 200 nM
Setting: whole 134-nt RNA, ends assumed
With: 150 mM KCl
Baseline: input library
Direction: higher = stronger binding
Oligonucleotide	log2 enrichment
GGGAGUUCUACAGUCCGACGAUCACCAUGCAGGUGGGCAUCUUUGGGAAGUGGGGCAAGGGGGGGAUAGGGAGGGGAGUAACACUUUGGGAACAGGUGGUCCCAGGUCGUUUCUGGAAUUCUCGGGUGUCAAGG	0.847
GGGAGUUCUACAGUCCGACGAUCGCAGGAAGUAAAAACAAAUGGAAAUGCUUCGGAUAAAAGCAGGGGUGGGGGUUGCUAAGGAAAGGGUGGGAUGGGAGUGGGUAAAGAGUUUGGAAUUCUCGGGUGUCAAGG	0.362
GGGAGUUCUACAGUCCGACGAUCGCAGGAAGUAAAAACAAAUGGAAAUGCUUCGGAUAGUGGCAGGGGUGGGGGUUGCUAAGGAUAGGGUGGGAUGGGAGUGGGUAAAGAGUUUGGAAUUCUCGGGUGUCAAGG	0.136
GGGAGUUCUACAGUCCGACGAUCAGUCCUGUGCUACACAUCGUAUGUACCGAAUCGGGUUUUUGGGAAAGGGAAAAAGGGAAAGUAUUAUGUUACGCCGUUCGGAUCUGCACUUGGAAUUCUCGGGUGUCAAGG	-0.139
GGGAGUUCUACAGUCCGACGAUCUUUGUCCCUGCUCAGGAUGAGACUUCUGUGAGCAGCGAGGAUUUUGAUAUGAGCGACUCCACAUGGAUGUCAGCUGACCCGCACCUGGCCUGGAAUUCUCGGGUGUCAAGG	-0.503
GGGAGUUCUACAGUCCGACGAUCUAACUUUAGAGGAGGAUCUGAUGGAUAUGGCAGUGGACGUGGAUUUGGGGAUGACUAUAAUGGGUAUGGAGGAGGACCUGGAGGUGGCAAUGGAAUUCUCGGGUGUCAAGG	0.413
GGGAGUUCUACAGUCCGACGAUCCCUGUGCUACACAUCGUAUGUACCGAAUCGGGGUUUGGGGAAAAAAAGGGGUUUUUGGGGAAAGUAUUAUGUUACGCCGUUCGGAUCUGCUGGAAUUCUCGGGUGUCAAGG	0.415
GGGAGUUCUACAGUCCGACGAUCUCAAGUCCUGUGCUACACAUCGUAUGUACCGAAUCGGGUUUGGGAGGGAAAGGGAAAGUAUUAUGUUACGCCGUUCGGAUCUGCACUUCCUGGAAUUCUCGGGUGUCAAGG	0.948
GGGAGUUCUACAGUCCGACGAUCUUCCGCGACUACCGGCGUGUGCACAAGCCGCCCAAGGUGCAGGAGAAGUGCCAGCUGGAGAUCAACUUCAACACGCUGCAGACCAAGCUGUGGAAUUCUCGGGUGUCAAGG	-1.3
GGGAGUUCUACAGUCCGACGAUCCCUCAAGUCCUGUGCUACACAUCGUAUGUACCGAAUCGGUUUGGUUUGGAGGAAAGUAUUAUGUUACGCCGUUCGGAUCUGCACUUCCAGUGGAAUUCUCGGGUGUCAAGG	0.0796

Some of these lines once more (set 5):
Oligonucleotide	log2 enrichment
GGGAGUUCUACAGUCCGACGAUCUCAAGUCCUGUGCUACACAUCGUAUGUACCGAAUCGGGUUUGGGAGGGAAAGGGAAAGUAUUAUGUUACGCCGUUCGGAUCUGCACUUCCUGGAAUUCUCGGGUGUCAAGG	0.948
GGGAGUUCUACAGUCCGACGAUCAGUCCUGUGCUACACAUCGUAUGUACCGAAUCGGGUUUUUGGGAAAGGGAAAAAGGGAAAGUAUUAUGUUACGCCGUUCGGAUCUGCACUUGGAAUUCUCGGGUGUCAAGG	-0.139
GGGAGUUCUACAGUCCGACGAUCCCUCAAGUCCUGUGCUACACAUCGUAUGUACCGAAUCGGUUUGGUUUGGAGGAAAGUAUUAUGUUACGCCGUUCGGAUCUGCACUUCCAGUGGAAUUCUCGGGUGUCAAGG	0.0796
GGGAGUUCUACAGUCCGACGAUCUUUGUCCCUGCUCAGGAUGAGACUUCUGUGAGCAGCGAGGAUUUUGAUAUGAGCGACUCCACAUGGAUGUCAGCUGACCCGCACCUGGCCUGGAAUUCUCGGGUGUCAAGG	-0.503
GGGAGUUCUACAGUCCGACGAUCCCUGUGCUACACAUCGUAUGUACCGAAUCGGGGUUUGGGGAAAAAAAGGGGUUUUUGGGGAAAGUAUUAUGUUACGCCGUUCGGAUCUGCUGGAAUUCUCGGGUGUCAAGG	0.415
